# Assay results of several laboratories.
# A part holds a random share of what one study measured.

# Sample 1
# Target: Ras GTPase-activating protein-binding protein 1, C-terminal RGG region (G3BP1, Homo sapiens, UniProt Q13283)
# Chain of UniProt Q13283 (whole entry, looked up): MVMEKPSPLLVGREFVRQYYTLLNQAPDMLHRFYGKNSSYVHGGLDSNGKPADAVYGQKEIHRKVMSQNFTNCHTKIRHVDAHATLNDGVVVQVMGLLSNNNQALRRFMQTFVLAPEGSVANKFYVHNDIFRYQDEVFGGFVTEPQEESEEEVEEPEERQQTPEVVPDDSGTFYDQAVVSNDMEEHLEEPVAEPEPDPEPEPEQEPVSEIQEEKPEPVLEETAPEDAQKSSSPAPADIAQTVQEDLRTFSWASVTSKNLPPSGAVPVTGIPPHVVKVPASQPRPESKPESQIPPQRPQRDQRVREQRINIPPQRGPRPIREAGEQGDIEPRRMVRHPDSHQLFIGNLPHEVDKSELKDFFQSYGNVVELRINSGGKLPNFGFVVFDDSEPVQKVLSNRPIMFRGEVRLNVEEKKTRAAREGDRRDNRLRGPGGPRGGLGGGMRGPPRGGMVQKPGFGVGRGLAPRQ
# Technique: RNA Bind-n-Seq
# Form: RNA
# Sample: in vitro
# Concentration: 1 µM
# Notes: whole 134-nt RNA, ends assumed
# Together with: 150 mM KCl
# Baseline: input library
# Reading: higher = stronger binding
# Constant ends, left off below: GGGAGUUCUACAGUCCGACGAUC … UGGAAUUCUCGGGUGUCAAGG
Sequence,log2 enrichment
CAAGUCCUGUGCUACACAUCGUAUGUACCGAAUCGGUUUUUGGUGGAAAAAAAGGAAAGUAUUAUGUUACGCCGUUCGGAUCUGCACUUC,-1.59
AGUCCUGUGCUACACAUCGUAUGUACCGAAUCGGCCCCCGGGGCCCCCGGGCCCCCGGAAAGUAUUAUGUUACGCCGUUCGGAUCUGCAC,-2.06
CAAGUCCUGUGCUACACAUCGUAUGUACCGAAUCGGGGAAAGGGAAAGGAAAGGGAAAGUAUUAUGUUACGCCGUUCGGAUCUGCACUUC,-1.15
CUCAAGUCCUGUGCUACACAUCGUAUGUACCGAAUCGGAAAAAGGAGGUUUGGAAAGUAUUAUGUUACGCCGUUCGGAUCUGCACUUCCA,-1.1
ACCAUGCAGGUGGGCAUCUUUGGGAAGUGGGGCAAGGGGGGGAUAGGGAGGGGGGUAACACUUUGGGAACAGGUGGUCCCAGGACGUUUC,1.82
UGGCCCUGGUGGCAUGCGGGGAGGAGGAGGUGGCCUCAUGGAUCGUGGUGGUCCCGGUGGAAUGUUCAGAGGUGGCCGUGGUGGAGACAG,2.26
UUCUGAGAAGGUUGCGCAGCAGCUGUGCCCGGCAGUCUAGAGGCGCAGAAGAGGAAGCCAUCGCCUGGCCCCGGCUCUCUGGACCUUGUC,-1.71
AAGUCCUGUGCUACACAUCGUAUGUACCGAAUCGGGCCCGGGCCCGGGGCCCGGGGAAAGUAUUAUGUUACGCCGUUCGGAUCUGCACUU,-2.48
CUGUGCUACACAUCGUAUGUACCGAAUCGGCCCCCCCGGGGCCCCCCCGGGCCCCCCCGGGAAAGUAUUAUGUUACGCCGUUCGGAUCUG,-2
GAAAUCCACAGGAAAGUGAUGUCACAAAACUUCACCAACUGCCACACCAAGAUUCGCCAUGUUGAUGCUCAUGCCACGCUAAAUGAUGGU,-0.0742
CUGUGCUACACAUCGUAUGUACCGAAUCGGGCCCCCCGGGGCCCCCCGGGGCCCCCCGGGGAAAGUAUUAUGUUACGCCGUUCGGAUCUG,-2.5
AGUCCUGUGCUACACAUCGUAUGUACCGAAUCGGGUUUGGGAAAGGGAAAAAAAGGGAAAGUAUUAUGUUACGCCGUUCGGAUCUGCACU,0.42
UGGCCCUGGUGGCAUGCGGGAAGGAAGAGGUGGCCUCAUGGAUCGUGGUGGUCCCGGUGGAAUGUUCAGAGGUGGCCGUGGUGGAGACAG,2.12
UAACUUUAGCGGAGGAUCUGAUGGAUAUGGCAGUGGACGUGGAUUUGGGGAUGGCUAUAAUGGGUAUGGAGGAGGACCUGGAGGUGGCAA,-1.47

# Sample 2
# Target: Interferon regulatory factor 7, full length, phosphomimetic (IRF7, Homo sapiens, UniProt Q92985, residues 1-503, S471D/S472D/S475D/S476D/S477D/S483D/S484D/S487D)
# Chain of UniProt Q92985 (whole entry, unmodified, looked up): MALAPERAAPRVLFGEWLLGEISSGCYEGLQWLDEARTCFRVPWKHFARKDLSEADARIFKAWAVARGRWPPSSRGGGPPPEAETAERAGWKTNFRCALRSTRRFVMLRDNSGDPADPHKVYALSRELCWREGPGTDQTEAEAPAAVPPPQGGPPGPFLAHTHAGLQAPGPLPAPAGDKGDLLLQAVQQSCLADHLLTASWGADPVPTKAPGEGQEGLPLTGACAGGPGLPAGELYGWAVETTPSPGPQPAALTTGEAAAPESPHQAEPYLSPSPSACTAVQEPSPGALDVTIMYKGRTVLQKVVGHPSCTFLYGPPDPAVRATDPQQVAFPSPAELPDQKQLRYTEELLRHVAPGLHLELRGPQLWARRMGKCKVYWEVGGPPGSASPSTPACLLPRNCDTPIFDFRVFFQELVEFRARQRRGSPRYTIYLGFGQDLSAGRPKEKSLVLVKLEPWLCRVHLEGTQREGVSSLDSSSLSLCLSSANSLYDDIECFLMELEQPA
# Technique: protein-binding microarray
# Form: double-stranded DNA, one strand shown
# Sample: in vitro
# Concentration: 2200 nM top
# Notes: 60-bp whole probe
# Together with: salmon DNA 0.4 mg/ml
# Baseline: random background probes
# Reading: higher = stronger binding
# Constant ends, left off below: GCCTAGCAC … GTCTTGATTCGCTTGACGCTGCTG
Sequence,fitted relative affinity
GACGAACTGAGTACCGAGACGTGCTAG,-0.0399 z-score
GACGGTATACTTATCCTGACGTGCTAG,0.464 z-score
TTAGGTTTGGGTTCCGGTTAGTGCTAG,1.57 z-score
GACGAACTTGGGACTGGAGACGTGCTA,-0.382 z-score
TCAGGTTTCGGTTTCGGTTAGTGCTAG,16.6 z-score
CTAAATATCTTTGTTGAAAAGTGCTAG,-0.156 z-score
GTGGGGGGTGTGAGTGGGTGGTGCTAG,1.85 z-score
TGAGGTTTCGGTATCGGTTAGTGCTAG,6.97 z-score
TTAGAACTGGGGATTGGATTAGTGCTA,-0.212 z-score
TTTCTTCTAGACTTCTCCATGTGCTAG,2.41 z-score
TCACTTTCAGTTCTCCCACTGTGCTAG,11.3 z-score
TTAGGACTGGGGACTGCGTTAGTGCTA,-0.744 z-score
GACGATTTCGGGACTGGAGAGGTGCTA,1.03 z-score
TCATTCCTCTTTCTTTGACTGTGCTAG,2.68 z-score
GACGAACCGAGTATCGAGACGTGCTAG,0.143 z-score
CTAGGTTTCGGTATCGGTTAGTGCTAG,7.7 z-score
TTAGATATCATTTTCGATTAGTGCTAG,5.61 z-score
TGAGGTTTCCTACTGCTTTAGTGCTAG,1.06 z-score

# Sample 3
# Target: Histone acetyltransferase KAT6A, winged helix 1, GST fusion (KAT6A, Homo sapiens, UniProt Q92794, residues 1-85)
# Technique: protein binding microarray
# Form: double-stranded DNA, one strand shown
# Sample: in vitro
# Concentration: not given
# Notes: 8-mer, flanks averaged, mean of 2 arrays, mostly near background
# Baseline: not given
# Reading: higher = stronger binding
# Construct (chain): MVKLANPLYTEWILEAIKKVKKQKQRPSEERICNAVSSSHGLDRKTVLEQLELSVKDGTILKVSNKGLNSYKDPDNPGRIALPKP
Sequence,E-score
ACGGCCAA,0.205
ACTTGAAG,-0.214
GCTTGTAA,-0.0193
CCTATATA,-0.134
GCGCGAGA,0.268
GGAGTAAC,0.0938
GTGTTATA,0.00058
AGAATTCC,-0.118
AATCCCGA,0.14
CGTCGTCC,0.111
GGCTTACA,-0.114
CTTCCTTC,-0.088
AAAATTGG,-0.232
GAGCGATC,0.0416
AAGTAGTG,-0.0786
GACGCAAA,0.246
GTCTAGAA,0.0191
ATATTATG,-0.076
CAAACTTC,-0.0859
GCCAGTAA,-0.0797
CCTAGACG,0.0053
CGGCCATC,0.209
CTAGGAGA,-0.169
CATATGAA,-0.1
CCGCAAGG,0.188

# Sample 4
# Target: RING finger protein unkempt homolog, zinc fingers 1-6, GST-SBP tag (UNK, Homo sapiens, UniProt Q9C0B0, residues 30-357)
# Technique: RNA Bind-n-Seq
# Form: RNA
# Sample: in vitro
# Concentration: not given
# Notes: RNA with constant flanks, ends assumed
# Baseline: input RNA pool
# Reading: higher = stronger binding
# Constant ends, left off below: GGGAGUUCUACAGUCCGACGAUC … CAACAGAGGAUUGAGCAUCA
# Construct (chain): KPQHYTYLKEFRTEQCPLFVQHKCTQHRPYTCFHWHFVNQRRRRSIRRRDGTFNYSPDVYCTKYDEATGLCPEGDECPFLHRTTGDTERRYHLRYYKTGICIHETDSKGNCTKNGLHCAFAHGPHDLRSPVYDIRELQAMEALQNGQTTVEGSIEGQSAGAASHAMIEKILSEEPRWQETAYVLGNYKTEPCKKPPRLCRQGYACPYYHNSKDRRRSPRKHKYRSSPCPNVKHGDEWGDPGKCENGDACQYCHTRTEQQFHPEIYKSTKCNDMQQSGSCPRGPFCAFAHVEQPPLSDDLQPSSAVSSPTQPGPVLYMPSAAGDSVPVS
Sequence,bound/input enrichment [ratio]
UGUUUAGAAGGAAUGAUUCUUGCAGCAAAAUCAGUUGAUGAAAGAAGAGAUUCUCAAAUGGCCGCCGACUCCUUCAAGUCUGGCUUUGAACCUCCAGGAGACUUUCCAUUUGAAGAUUAC,0.19
UGUGCAUAUGAUGCUUGAGAUGGUUUUUGCAAAAGCAGAAAUCGCUGCAAGGUAAUCACAACCGAUAAAAGUGGUAUUUUAAACCUUUGAAAUAAAUGGAUGUAACUGUACCUUGGUACA,0.182
GUACGUCAUUCAAGUGUUUAAUGGUAAAGGUGUAUUAUAAGGAUAGUGCUAGAAGCUUUCACCGACUGUAAAGAGUUCCAUGGAGUAUUAAACCCAUAGUUGGAAAGGUCUGAGGGCCCA,0.375
AUAAAGACUGAGCACUACAAAACAGAUCUUCAUUCUCCAAGAGGACAAGCGUCGGACCGUAUAAACCCCAUGUCUAGGGUGCUAAGCCCCCUGAGUCCUCAAAUCAGCCCUUGCAGCUCC,0.329
GGCCAGGAGCGAUUUCACACCAUCACAACCUCCUACUACAGAGGAGCAAUGGGCAUCAUGCCCGUGUAUGACAUCACCAACGGUAAAAGCUUUGAGAACAUCAGCAAGUGGCUUAGAAAC,0.299
AUUUGUUUUGUGAAUGACCCACGGCCCCAGCACAAGUACAAUAAAUUGUACACAGCCGACUACUUGAGCAAUAUGGUUGGAGGGAGAAAAACGCUGUAUAACAACCAGCCCAUUGACUUC,0.122
CACAAUUGCUCUUACAAUUACAAAGCUGAUGCUGCUGAGAAAAUCAGAAAAGAAAAUCCAGCCGUUGUUGGUGAAAAGAUCCAGAAGAUUUGAACUCCUGCUGGAAUACAAAAUCCUUUG,0.205
AAAGAUGGAGAAAAGCAAGAUCUUUGAUAUCUUUCAUGUUUGCCUGCAGUUGAACAAUACUUCCGAGUACUUUUUAAAAUUAUUUCUCACAAAGAAAUGAAUGUACAAUCCAAUGAAAAC,0.076
UAGGAAUGCUCGGGCUAAAGGAAUGUCAUUUUACAAGUAUGUAAUGGAAAGUCGUGAUCCCCGUACAAAUGUGAUAUUAUUGGAGGAUACUGCUGCAGUCUUGGGAGUUAUAAUAGCAGC,0.631
GAGUUCCGAUCUGGAAAGGCUCCUAUCCUCAUUGCCACGGAUGUAGCCUCCCGUGGGCCCGAUGUGGAAGAUGUCAAGUUUGUCAUCAACUACGAUUAUCCAAACAGCUCAGAGGAUUAU,0.143
GCGGGCGCAGUGUUAUCCACACAGUGAAAUAAGACUGUCAGAAAAUUUCAGCCUCGUGGACCGUAAUUUUAAUGCCUGUACCACCUGUUUCUGGACAGUUCUCUUGGAGGAGCGAAGAAU,0.179
